Results from different studies.
Every numbered part comes from another study and shows a few of its results, in no order. Changes are numbered by the printed parent chain.
UniProt O15294, sequence (whole entry, looked up): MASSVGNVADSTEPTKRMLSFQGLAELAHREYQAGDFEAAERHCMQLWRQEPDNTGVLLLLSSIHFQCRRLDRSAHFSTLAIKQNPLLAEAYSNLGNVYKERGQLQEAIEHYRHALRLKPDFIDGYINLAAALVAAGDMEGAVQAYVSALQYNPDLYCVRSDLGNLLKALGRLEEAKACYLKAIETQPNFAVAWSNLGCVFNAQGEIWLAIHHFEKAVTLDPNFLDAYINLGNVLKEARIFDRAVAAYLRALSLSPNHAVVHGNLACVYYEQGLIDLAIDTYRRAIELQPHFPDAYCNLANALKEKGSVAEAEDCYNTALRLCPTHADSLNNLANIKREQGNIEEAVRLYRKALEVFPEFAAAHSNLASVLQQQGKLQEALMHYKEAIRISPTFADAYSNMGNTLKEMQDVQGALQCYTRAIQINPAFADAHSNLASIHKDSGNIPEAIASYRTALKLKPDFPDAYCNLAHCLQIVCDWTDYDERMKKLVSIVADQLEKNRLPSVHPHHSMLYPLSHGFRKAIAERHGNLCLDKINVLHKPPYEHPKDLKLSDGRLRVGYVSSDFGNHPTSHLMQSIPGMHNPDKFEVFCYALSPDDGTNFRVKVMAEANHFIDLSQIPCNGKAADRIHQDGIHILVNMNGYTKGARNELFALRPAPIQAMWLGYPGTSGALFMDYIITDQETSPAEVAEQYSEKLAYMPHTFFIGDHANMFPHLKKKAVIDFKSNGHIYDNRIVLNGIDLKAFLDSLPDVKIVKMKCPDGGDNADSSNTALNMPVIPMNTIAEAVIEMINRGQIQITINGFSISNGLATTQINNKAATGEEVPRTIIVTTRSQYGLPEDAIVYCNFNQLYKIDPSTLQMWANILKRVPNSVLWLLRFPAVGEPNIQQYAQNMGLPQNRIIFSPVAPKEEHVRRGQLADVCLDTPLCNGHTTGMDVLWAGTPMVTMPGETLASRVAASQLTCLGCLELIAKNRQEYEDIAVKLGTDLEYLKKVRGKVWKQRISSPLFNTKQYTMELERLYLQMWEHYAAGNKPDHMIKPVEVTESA

Study 1
Target: CCNE1, cyclin fold, Cln2 fusion (human)
Method: yeast growth competition, sequencing
Matrix: yeast
Notes: strong parent motif
Baseline: not given
Direction: higher = stronger binding
Parent: CDC25A docking peptide (human); PPHRRRLLFACSP
Change | normalised enrichment score
S12R | 1.17
C11K | 0.115
F9C | 0.56
R4W | 0.941
R5F | 1.55
A10H | 1.5
H3V | 4.17
P2V | 0.944

Study 2
Target: Histone acetyltransferase KAT6A, winged helix 2, GST fusion (KAT6A, Homo sapiens, UniProt Q92794, residues 85-181)
Method: protein binding microarray
Form: double-stranded DNA, one strand shown
Matrix: in vitro
Tested at: not given
Notes: 8-mer, flanks averaged, mean of 2 arrays, mostly near background
Baseline: not given
Direction: higher = stronger binding
Residues (chain): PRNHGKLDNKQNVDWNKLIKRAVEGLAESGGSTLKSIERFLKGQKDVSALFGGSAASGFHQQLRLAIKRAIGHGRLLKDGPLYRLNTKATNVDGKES
Strand | E-score
CACTACTG | -0.139
CCTTCAGC | -0.0681
GAGTCCGC | -0.00864
ACCCTCCG | 0.0651
CTCAATTA | -0.0794
GTGCCCAA | 0.16
CCAGGAGG | 0.0785
AATTTCTG | 0.127

Mixed results
Molecule | target | assay | test system | conditions | scale | endpoint | result
SKSHHTEKFWHYTHV | UDP-N-acetylglucosamine--peptide N-acetylglucosaminyltransferase 110 kDa subunit (OGT, Homo sapiens, UniProt O15294) | binding, phage display NGS | peptide | concentration not given | baseline: input library | enrichment fold change | 8.02
PhoQ, residues 284 288 289 292 302 303 SSYNSA | PhoP, residues 12 14 15 18 19 AWHSL (Escherichia coli, UniProt P23836) | Sort-seq, item: YFP reporter | E. coli | PhoQ-PhoP variant library, with: 10 µM Mg2+ | baseline: high Mg2+ state, higher = stronger signaling | fold induction | 1.57

For quick reference, copied from above (study 2):
Strand | E-score
CACTACTG | -0.139
CCAGGAGG | 0.0785
AATTTCTG | 0.127
